Published values from different studies.
Each numbered part is a random draw from the data of one study; scales do not carry over between parts.

Study 1
Target: Serine/threonine-protein kinase PknB (pknB, Mycobacterium tuberculosis, UniProt P9WI81)
Chain of UniProt P9WI81 (whole entry, looked up): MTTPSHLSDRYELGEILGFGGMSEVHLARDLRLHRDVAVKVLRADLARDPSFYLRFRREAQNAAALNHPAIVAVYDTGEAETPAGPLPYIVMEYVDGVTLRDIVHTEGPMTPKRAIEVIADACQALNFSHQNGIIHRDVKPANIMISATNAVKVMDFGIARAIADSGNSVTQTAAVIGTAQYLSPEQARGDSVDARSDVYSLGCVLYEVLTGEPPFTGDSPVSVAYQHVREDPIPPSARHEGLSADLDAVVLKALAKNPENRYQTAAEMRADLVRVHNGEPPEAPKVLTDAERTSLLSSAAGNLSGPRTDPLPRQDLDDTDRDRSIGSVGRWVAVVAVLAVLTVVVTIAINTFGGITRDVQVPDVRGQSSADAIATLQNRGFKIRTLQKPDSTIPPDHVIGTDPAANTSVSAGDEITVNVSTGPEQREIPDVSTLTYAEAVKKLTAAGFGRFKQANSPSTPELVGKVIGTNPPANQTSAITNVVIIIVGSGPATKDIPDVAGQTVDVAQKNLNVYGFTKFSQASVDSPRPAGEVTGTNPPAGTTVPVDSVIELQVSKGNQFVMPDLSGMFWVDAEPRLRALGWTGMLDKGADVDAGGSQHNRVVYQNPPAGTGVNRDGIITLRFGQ
Read-out: cell-free assay
Method: competition with immobilised ligand
Concentration: 1 µM
| SMILES | remaining binding |
| --- | --- |
| CN([C@@H]1CCc2c(CC(=O)O)c3cc(S(C)(=O)=O)ccc3n2C1)S(=O)(=O)c1ccc(F)cc1 | 100% |
| CN(C(=O)c1ccccc1)c1cc(N(C)c2ccc3c(c2)CCc2ccc(C(=O)NCCN4CCOCC4)cc2C3=O)ccc1F | 88% |
| O=C(Nc1cccnn1)N1CC(C/C=C/c2cncc(Oc3ccc(C(F)(F)F)cn3)n2)C1 | 87% |

Study 2
Organism: Plasmodium berghei
Cells: Huh-7
Strain: liver stage
Concentration: 10 µM
Time: 24 h
Baseline: control
| SMILES | parasite load [%] |
| --- | --- |
| CCC(=O)O[C@H]1CC[C@H]2[C@@H]3CCc4cc(O)ccc4[C@H]3CC[C@]12C | 129 |
| C=C[C@H]1CN2CC[C@H]1C[C@@H]2[C@@H](O)c1ccnc2ccccc12 | 64 |
| CC[N+](CC)(CC)CCOc1cccc(OCC[N+](CC)(CC)CC)c1OCC[N+](CC)(CC)CC | 102 |
| CC[C@@H](C(=O)[C@@H](C)[C@@H](O)[C@H](C)CCc1ccc(C)c(O)c1C(=O)O)[C@H]1O[C@](CC)([C@H]2CC[C@](O)(CC)[C@H](C)O2)C[C@@H]1C | 2.83 |
| C[C@]12C=CC(=O)C=C1CC[C@@H]1[C@@H]2[C@@H](O)C[C@@]2(C)[C@H]1CC[C@]2(O)C(=O)COC(=O)CCC(=O)O | 104 |

Study 3
Cell line: HaCaT
Concentration: 100 µM
Time: 36 h
| SMILES | viability |
| --- | --- |
| NCC(O)c1ccc(O)cc1 (stereo not drawn) | 85.1% |
| COc1ccc(CN(C(=O)[C@@H](N)Cc2c(C)cc(C(N)=O)cc2C)[C@@H](C)c2nc(-c3ccccc3)c[nH]2)cc1C(=O)O | 93% |
| COC(=O)Nc1nc2ccccc2[nH]1 | 66.3% |
| CC(C)OC(=O)[C@H](C)N[P@](=O)(CO[C@H](C)Cn1cnc2c(N)ncnc21)Oc1ccccc1 | 69.3% |
| C[C@@H](CO)NC(=O)[C@@H]1C=C2c3cccc4[nH]cc(c34)C[C@H]2N(C)C1 | 85.2% |

Further values, each from its own experiment
Species: mouse
Matrix: microsomes or S9
Concentration: 2 µM
Time: 0.5 h
| Structure (SMILES) | remaining compound |
| --- | --- |
| C=C(C)[C@H]1Cc2c(ccc3c2O[C@@H]2COc4cc(OC)c(OC)cc4[C@@H]2C3=O)O1 | 0.323% |
| COc1cc2c(cc1OC)[C@@H]1C(=O)c3ccc4oc(C(C)C)cc4c3O[C@@H]1CO2 | 4.58% |

Repeated from above (study 3):
| SMILES | viability |
| --- | --- |
| NCC(O)c1ccc(O)cc1 (stereo not drawn) | 85.1% |
| COC(=O)Nc1nc2ccccc2[nH]1 | 66.3% |
